Published values collected from several papers.
Every numbered part comes from another study and shows a few of its results, in no order. Positions count from the first letter of the parent shown.

Sample 1
Target: CCND2, cyclin fold, Cln2 fusion (human)
Method: yeast growth competition, sequencing
Medium: yeast
Setting: weak parent motif
Relative to: not given
Reading: higher = stronger binding
Parent: RBL1 docking peptide (human); GSAKRRLFGEDPP
| Change | normalised enrichment score |
| --- | --- |
| G9Q | 0.409 |
| A3C | 0.36 |
| R6Y | 0.691 |
| G9D | 0.703 |
| K4Q | 0.119 |
| G9H | 0.177 |
| S2I | 0.0551 |
| G9Y | 0.194 |
| S2K | -0.171 |
| P12Y | 0.421 |
| R5I | -0.0192 |
| D11H | 0.294 |
| E10R | 0.254 |
| G9E | 0.352 |
| G9T | 0.465 |
| E10T | 0.0607 |
| A3L | -0.0579 |
| A3P | 0.389 |
| G1K | 0.405 |

Sample 2
Target: Ras GTPase-activating protein-binding protein 1, RRM domain (G3BP1, Homo sapiens, UniProt Q13283)
Sequence of UniProt Q13283 (whole entry, looked up): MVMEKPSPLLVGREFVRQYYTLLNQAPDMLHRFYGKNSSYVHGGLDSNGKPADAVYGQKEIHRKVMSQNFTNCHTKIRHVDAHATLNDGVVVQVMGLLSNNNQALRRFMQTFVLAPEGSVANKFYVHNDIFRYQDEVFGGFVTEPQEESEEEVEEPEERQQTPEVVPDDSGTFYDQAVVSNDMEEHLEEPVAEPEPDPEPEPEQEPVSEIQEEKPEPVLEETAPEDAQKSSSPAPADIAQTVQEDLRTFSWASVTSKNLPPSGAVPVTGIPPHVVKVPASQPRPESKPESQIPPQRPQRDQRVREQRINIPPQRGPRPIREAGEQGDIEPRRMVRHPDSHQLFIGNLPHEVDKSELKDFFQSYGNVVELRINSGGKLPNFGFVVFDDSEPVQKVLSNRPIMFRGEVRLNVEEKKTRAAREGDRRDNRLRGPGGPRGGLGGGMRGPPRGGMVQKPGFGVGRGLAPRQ
Method: RNA Bind-n-Seq
Form: RNA
Medium: in vitro
Concentration: 1 µM
Setting: whole 134-nt RNA, ends assumed
Together with: 150 mM KCl
Relative to: input library
Reading: higher = stronger binding
| Sequence | log2 enrichment |
| --- | --- |
| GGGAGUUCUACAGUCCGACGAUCCUGUGCUACACAUCGUAUGUACCGAAUCGGGAAAAAAAGGGUUUUUUUGGGAAAAAAAGGGAAAGUAUUAUGUUACGCCGUUCGGAUCUGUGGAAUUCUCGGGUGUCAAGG | -0.37 |
| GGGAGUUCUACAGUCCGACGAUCGGACAAGAAUCCUUCAAGAAACAGGAAAAAACUCCUAAAACACCAAAAGGACCUAGUUCUGUAGAAGACAUUAAAGCAAAAAUGCAAGCAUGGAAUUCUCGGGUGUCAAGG | -0.00455 |
| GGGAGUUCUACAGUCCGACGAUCUCAAGUCCUGUGCUACACAUCGUAUGUACCGAAUCGGGGCCGGCCGGGGCCGGGAAAGUAUUAUGUUACGCCGUUCGGAUCUGCACUUCCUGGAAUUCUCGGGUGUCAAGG | -0.782 |
| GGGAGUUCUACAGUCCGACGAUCACCAUGCAGGUGGGCAUCUUUGGGAAUUGGGGCAAGGGGGGGAUAGGGAGGGGGGUAACACUUUGGGAACAGGUGGUCCCAGGUCGUUUCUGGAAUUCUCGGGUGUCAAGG | -0.361 |
| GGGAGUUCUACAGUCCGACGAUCGUCCUGUGCUACACAUCGUAUGUACCGAAUCGGGGUUUUUGGGGAGGGGAAAAAGGGGAAAGUAUUAUGUUACGCCGUUCGGAUCUGCACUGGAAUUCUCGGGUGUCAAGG | 0.813 |
| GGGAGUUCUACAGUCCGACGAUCACCAUGCAGGUGGGCAUCAAAGGGAAGUGGGGCAAGGGGGGGAUAGGGAGGGGGGUAACACUUUGGGAACAGGUGGUCCCAGGUCGUUUCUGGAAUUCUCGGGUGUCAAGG | -0.706 |
| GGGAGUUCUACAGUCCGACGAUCGAAAUUGAACCAGCAGCGAUGAAAGCAGCAGCUGCUGCCCCUGCCUCAGAGGAUGAGGACGAUGAGGAUGACGAAGAUGAUGAGGAUGACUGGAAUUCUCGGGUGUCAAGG | -0.236 |
| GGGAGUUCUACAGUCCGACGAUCUCCUGUGCUACACAUCGUAUGUACCGAAUCGGUUUUUUUGGAAAAAAAGGUUUUUUUGGAAAGUAUUAUGUUACGCCGUUCGGAUCUGCAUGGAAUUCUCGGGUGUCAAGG | -0.369 |
| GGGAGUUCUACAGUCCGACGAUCACCAUGCAGGUGGGCAUCUUUGGGAAGUGGGGCAAGAAAGGGAUAGGGAGGGGGGUAACACUUUGGGAACAGGUGGUCCCAGGUCGUUUCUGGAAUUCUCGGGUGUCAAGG | -0.238 |
| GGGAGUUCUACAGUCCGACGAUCACCAUGCAGGUGGGCAUCUUUGGGAAGUGGGGCAAGGGGGGGCUAGGGAGGGGGGUAACACUUUGGGAACAGGUGGUCCCAGGUCGUUUCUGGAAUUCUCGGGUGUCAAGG | 1.04 |
| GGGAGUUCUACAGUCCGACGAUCAAGUCCUGUGCUACACAUCGUAUGUACCGAAUCGGUUUUUUUGGUUUGGAAAAAGGAAAGUAUUAUGUUACGCCGUUCGGAUCUGCACUUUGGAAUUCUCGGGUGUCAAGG | -0.306 |
| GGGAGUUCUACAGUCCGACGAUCGUCCUGUGCUACACAUCGUAUGUACCGAAUCGGGUUUUUUGGUUUUUUGGGUUUUUUGGAAAGUAUUAUGUUACGCCGUUCGGAUCUGCAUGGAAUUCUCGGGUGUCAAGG | -0.242 |
| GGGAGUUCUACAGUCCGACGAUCCUAGAGAGCUGUAGUACACAUGGAUGAACGACGAGAAGAACAAAUUGUACAGUUACUGAAUUCUGUUCAAGCGAAGAAUGAUAAAGAGUCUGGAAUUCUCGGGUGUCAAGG | 0.205 |
| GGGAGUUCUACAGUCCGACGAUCGCAGGAAGUAAAAACAAAUGGAAAUUCUUCGGAUAGUGGCAGGGGUGGGGGUUGCUAAGGAAAGGGUGGGAUGGGAGUGGGUAAAGAGUUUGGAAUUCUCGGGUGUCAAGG | 1.17 |

Sample 3
Target: Sal-like protein 4, full length isoform A (SALL4, Homo sapiens, UniProt Q9UJQ4, residues 1-1053)
Sequence of UniProt Q9UJQ4 (whole entry, looked up): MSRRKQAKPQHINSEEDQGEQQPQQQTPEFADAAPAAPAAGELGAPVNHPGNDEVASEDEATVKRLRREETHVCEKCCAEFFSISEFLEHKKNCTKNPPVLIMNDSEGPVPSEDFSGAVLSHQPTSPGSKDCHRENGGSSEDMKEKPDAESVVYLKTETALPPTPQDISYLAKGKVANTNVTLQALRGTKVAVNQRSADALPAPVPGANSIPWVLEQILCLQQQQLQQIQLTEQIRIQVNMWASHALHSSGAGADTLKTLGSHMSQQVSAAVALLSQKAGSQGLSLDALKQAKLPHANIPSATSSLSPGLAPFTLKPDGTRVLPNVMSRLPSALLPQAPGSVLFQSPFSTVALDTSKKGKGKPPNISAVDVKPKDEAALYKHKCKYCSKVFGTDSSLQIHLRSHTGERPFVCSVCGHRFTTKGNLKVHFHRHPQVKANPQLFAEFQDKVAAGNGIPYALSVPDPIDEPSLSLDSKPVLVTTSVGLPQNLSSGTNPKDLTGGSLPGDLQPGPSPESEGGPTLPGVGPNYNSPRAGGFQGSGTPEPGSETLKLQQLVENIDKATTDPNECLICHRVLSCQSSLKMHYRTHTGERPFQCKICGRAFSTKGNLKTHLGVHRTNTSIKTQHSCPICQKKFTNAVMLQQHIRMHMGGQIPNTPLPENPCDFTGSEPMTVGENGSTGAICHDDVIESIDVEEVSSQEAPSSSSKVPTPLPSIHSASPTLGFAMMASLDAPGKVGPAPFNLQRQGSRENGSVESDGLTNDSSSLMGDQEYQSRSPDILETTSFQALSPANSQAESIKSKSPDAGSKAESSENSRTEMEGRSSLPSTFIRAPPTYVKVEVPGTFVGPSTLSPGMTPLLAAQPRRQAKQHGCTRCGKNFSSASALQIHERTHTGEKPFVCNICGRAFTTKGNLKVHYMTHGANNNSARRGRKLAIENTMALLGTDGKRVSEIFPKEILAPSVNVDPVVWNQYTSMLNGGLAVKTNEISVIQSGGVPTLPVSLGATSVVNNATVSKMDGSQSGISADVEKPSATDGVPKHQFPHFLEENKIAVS
Method: universal PBM
Form: double-stranded DNA, one strand shown
Medium: in vitro
Concentration: 600 nM
Setting: 8-mer, flanks averaged, mean of replicates
Reading: higher = stronger binding
| Sequence | E-score |
| --- | --- |
| AGGGAACG | -0.242 |
| CGCTGACC | -0.243 |
| AGGGGGAG | -0.21 |
| ACTAATTG | 0.191 |
| CTCCGCTC | -0.0757 |
| CACCCAGG | -0.331 |
| AGCGACTC | -0.286 |
| CACTGGTC | -0.237 |
| CGCCTTAA | -0.119 |
| AACAAGCT | 0.0107 |
| GAGAGGTA | -0.218 |
| CCTACGTA | 0.15 |
| CTATCACA | 0.197 |
| CTGGCACC | -0.224 |
| CCCACCGC | -0.266 |
| AATCGTCC | -0.00181 |
| GCAAGTGC | -0.195 |
| CAGTGCCC | -0.287 |
| ACCCCAAG | -0.249 |
| AATGTGAG | 0.18 |

Sample 4
Target: Prothrombin, mature alpha-thrombin (F2, Homo sapiens, UniProt P00734)
Method: aptamer microarray, sandwich
Form: DNA with 2'F-ANA
Medium: in vitro
Concentration: 200 nM
Setting: whole 15-mer aptamer, many near background
Together with: Cy3 exosite-II aptamer, 400 nM
Reading: higher = stronger binding
Sequence: GGTTGGTGTGGTTGG
| Modification | mean fluorescence intensity [a.u.] |
| --- | --- |
| 2'F-ANA at 2 3 5 7 8 9 10 11 13 14 | 50.8 |
| 2'F-ANA at 1 2 4 5 6 7 8 9 13 14 | 50.2 |
| 2'F-ANA at 3 4 5 6 7 9 10 12 | 85.9 |
| 2'F-ANA at 1 2 4 5 6 8 9 13 15 | 50.2 |
| 2'F-ANA at 2 4 5 10 11 13 14 | 58 |
| 2'F-ANA at 1 3 4 5 6 7 8 10 11 | 47.8 |
| 2'F-ANA at 3 5 7 10 13 14 15 | 133 |
| 2'F-ANA at 1 3 5 10 11 12 13 14 15 | 50 |
| 2'F-ANA at 1 2 5 7 8 10 12 13 15 | 53.3 |
| 2'F-ANA at 1 4 5 11 13 14 | 47.6 |
| 2'F-ANA at 2 6 8 9 10 11 13 15 | 94.5 |
| 2'F-ANA at 2 5 12 | 196 |
| 2'F-ANA at 5 6 8 9 10 12 15 | 49.9 |
| 2'F-ANA at 4 5 7 9 13 14 15 | 47.7 |
| 2'F-ANA at 1 2 4 9 10 13 | 61.5 |
| 2'F-ANA at 1 2 5 6 8 9 15 | 77 |

Sample 5
Target: RNA binding protein fox-1 homolog 2, RRM domain, GST-SBP tag (RBFOX2, Homo sapiens, UniProt O43251-10, residues 100-194)
Method: RNA Bind-n-Seq
Form: RNA
Medium: in vitro
Concentration: 365 nM
Setting: natural RNA segment, single round, ends assumed
Relative to: no-protein control
Reading: higher = stronger binding
Residues (chain): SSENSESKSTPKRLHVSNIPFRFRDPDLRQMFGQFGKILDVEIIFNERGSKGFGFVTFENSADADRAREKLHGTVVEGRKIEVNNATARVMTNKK
| Sequence | RBNS enrichment (R) |
| --- | --- |
| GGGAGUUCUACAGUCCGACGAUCACUGUUUCUUUGUUACUCGUUGGUACAGCUGUUUGUUUUACUUGCACAUUUGUACAUAUACUUAAUGUUUUCAAGUGCCUUAAUUGUUUAAAAUCUCUGGCUUCAAAGUUUGGAAUUCUCGGGUGCCAA | 0.396 |
| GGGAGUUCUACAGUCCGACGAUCGCCAUUAACCAAAGGACAGAUGUGUAUAUGUGUGUGUGUGUAUGUGUGUGUAUGUAUAUGAUACAUAAUAUCACACACACACAAAGUUCUUUUUAGCUAUUCCUACAUACUGGAAUUCUCGGGUGCCAA | 0.472 |
| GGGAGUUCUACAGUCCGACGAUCGCUUCACACAGCUCCCCUGCUUCUAAAGGAUAAGGUACUGUAGCCUUGGUCCUGGGGACCACCUGCCUGGGGCAGUGGACAUCCUAACUAAACAGGCUUCUGGCAGUAGCUGGAAUUCUCGGGUGCCAA | 0.486 |
| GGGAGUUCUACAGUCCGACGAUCUCCUUUGUAUCAUAGCAAAGGAAAUGUUUAAAAAAAUCAACUGUAAUAAAGUAAUUUUAGUACACAGUGUCUGUCCAGUUUUUUUAAGCAAUUUUAUUCCCAUGAAGAUAUGGAAUUCUCGGGUGCCAA | 0.557 |
| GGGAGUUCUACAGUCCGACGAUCAAGCUGUGCUGUGUAUUGGUGGUUUUAGAAAGACUCAGCUCAUGAGCUGUGUUAAACCUUAACAUGAGACUCAUAUAUUCAGGGUUACAUGAGUUACUUUUAUAAAUCGAUGGAAUUCUCGGGUGCCAA | 0.264 |
| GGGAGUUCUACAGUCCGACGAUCUGGCAAACUGCUCUGUGCUUUCAAACCAAAGUGUUCCCCCCAACCCCAAAUUUGUCUAAGCACUGGCCAGUCUGUUGUGGGCAUUGUUUUCUACAACCAAAUUCUGGGUUUGGAAUUCUCGGGUGCCAA | 0.395 |
| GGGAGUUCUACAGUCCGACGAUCUUUGUAAAAUUUAAACAUCGUAUGCGCAUAAACAAAAAUGAACAAGAAUUAGGGGGAAAUAACAUUUUCCAAAUAAUUAUAAAAAAUUUGUCCUGUGUCUAUGUAUCUAUUGGAAUUCUCGGGUGCCAA | 0.438 |
| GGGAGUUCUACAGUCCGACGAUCGCUACAUUUCCAUGCAGGCAUUUGCACUUUGAAGUUAGGGCUGCCCAGUGCCACAUGCAAAGAGUGUAUUUGGUCUAAACAGUUCUUUCCAAACAACCAAAUGGCUGGGCUGGAAUUCUCGGGUGCCAA | 0.611 |
| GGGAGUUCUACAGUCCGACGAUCCAGCCCUUCACAGGCCUGAACCAGUAGGGGCCAGUGGGCCAGGUAAGCCCUAGAGCCUUGAACCAGGAAUAUCCAGGAAGAGGAAAUUCCCUUUGAGCCCCCAGAUGGUAUGGAAUUCUCGGGUGCCAA | 0.436 |
| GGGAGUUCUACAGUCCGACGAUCGUAACAAGCCAGGGGACUCUUGGCCAAAAGAAAGAAAGGGAAGUUGCACUAGGGCUUGUCCGUCCAUAAGGAAUUCCCCUCUGCUUUGCUCAAAGGACCAAAUUUCUUUGUGGAAUUCUCGGGUGCCAA | 0.504 |
| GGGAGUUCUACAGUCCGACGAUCCACGGAGGGUCCAGACUGUCCACUCGGGGGUGGAGUGAGACUGACUGCAAGCCCCACCCUCCUUGAGACUGGAGCUGGCGUCUGCAUACGAGAGACUUGGUUGAACUUGGUGGAAUUCUCGGGUGCCAA | 1.09 |
| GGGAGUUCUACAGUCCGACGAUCUCACUUUACCAAUUAAGAGUUAGGCCAGAUAAGUGAAAUUUAACUUAAGGGCACACAGCUAAUAAGUAAUAGGCCUAAACUGGAUUUCCUUAUUCCAAAUCCUGUCUUUUUGGAAUUCUCGGGUGCCAA | 0.421 |

A few entries again (sample 4):
| Modification | mean fluorescence intensity [a.u.] |
| --- | --- |
| 2'F-ANA at 4 5 7 9 13 14 15 | 47.7 |
| 2'F-ANA at 2 3 5 7 8 9 10 11 13 14 | 50.8 |
| 2'F-ANA at 1 2 4 9 10 13 | 61.5 |
| 2'F-ANA at 1 3 4 5 6 7 8 10 11 | 47.8 |
| 2'F-ANA at 2 6 8 9 10 11 13 15 | 94.5 |
| 2'F-ANA at 1 2 4 5 6 7 8 9 13 14 | 50.2 |
